{"data": "Experimental data collected from several papers", "note": "Parts stem from different laboratories: compare values within a part only. Substitutions count along the parent as printed."}
{"data": "Sample 1", "target": "Ras GTPase-activating protein-binding protein 1, RRM domain (G3BP1, Homo sapiens, UniProt Q13283)", "method": "RNA Bind-n-Seq", "form": "RNA", "sample": "in vitro", "tested at": "1 µM", "setting": "whole 134-nt RNA, ends assumed", "added": "150 mM KCl", "reference": "input library", "direction": "higher = stronger binding", "sequence of UniProt Q13283 (whole entry, looked up)": "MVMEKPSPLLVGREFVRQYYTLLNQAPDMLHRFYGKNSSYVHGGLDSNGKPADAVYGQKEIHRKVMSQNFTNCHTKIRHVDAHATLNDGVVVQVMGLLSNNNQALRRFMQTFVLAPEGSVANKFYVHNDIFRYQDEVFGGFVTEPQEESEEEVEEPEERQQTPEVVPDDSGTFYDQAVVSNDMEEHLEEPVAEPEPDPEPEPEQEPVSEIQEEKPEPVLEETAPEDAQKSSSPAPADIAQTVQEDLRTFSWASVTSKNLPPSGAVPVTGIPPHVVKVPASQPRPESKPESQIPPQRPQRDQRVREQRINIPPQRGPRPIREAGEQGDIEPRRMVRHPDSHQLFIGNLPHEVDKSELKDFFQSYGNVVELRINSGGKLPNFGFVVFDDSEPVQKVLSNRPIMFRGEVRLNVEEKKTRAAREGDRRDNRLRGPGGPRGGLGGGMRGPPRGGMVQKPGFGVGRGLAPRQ"}
{"Sequence": "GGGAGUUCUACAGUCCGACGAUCCACAGAAAACACGCACCCACACAGACACAGAGGGAAGGGGUUGGGAUGGGGACAGGGUGCACAGCAGGGCGGGGUAGGACCCCAGCCCCUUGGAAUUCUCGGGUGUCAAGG", "log2 enrichment": -0.323}
{"Sequence": "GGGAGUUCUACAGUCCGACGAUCCCUCAAGUCCUGUGCUACACAUCGUAUGUACCGAAUCGGGAGGGGAGGGAGGAAAGUAUUAUGUUACGCCGUUCGGAUCUGCACUUCCAGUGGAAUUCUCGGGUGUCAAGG", "log2 enrichment": -0.012}
{"Sequence": "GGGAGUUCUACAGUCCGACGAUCCUCAAGUCCUGUGCUACACAUCGUAUGUACCGAAUCGGGGUUGGGGUUGGUUGGAAAGUAUUAUGUUACGCCGUUCGGAUCUGCACUUCCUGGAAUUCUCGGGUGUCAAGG", "log2 enrichment": -0.247}
{"Sequence": "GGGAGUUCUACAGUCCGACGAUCUCCUGUGCUACACAUCGUAUGUACCGAAUCGGCCCCCCCGGCCCCCCCGGCCCCCCCGGGAAAGUAUUAUGUUACGCCGUUCGGAUCUGCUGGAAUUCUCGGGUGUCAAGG", "log2 enrichment": -1.01}
{"Sequence": "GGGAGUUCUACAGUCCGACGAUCCCUCAAGUCCUGUGCUACACAUCGUAUGUACCGAAUCGGUUUGGAAAGGUGGAAAGUAUUAUGUUACGCCGUUCGGAUCUGCACUUCCAGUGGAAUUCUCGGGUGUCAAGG", "log2 enrichment": -0.209}
{"Sequence": "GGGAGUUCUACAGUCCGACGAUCUUAAUAGAUUGAACUUCAAAAAAAAAUUCUUUCUUAAUUUCUGGAUUAAAAAGUAUGCCUGUGUCUUCUAGACCUUUACCAGAAGAUGAUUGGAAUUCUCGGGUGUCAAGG", "log2 enrichment": -0.246}
{"Sequence": "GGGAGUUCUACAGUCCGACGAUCGUCCUGUGCUACACAUCGUAUGUACCGAAUCGGGGAAAAAGGAAAAAGGGAAAAAGGGAAAGUAUUAUGUUACGCCGUUCGGAUCUGCACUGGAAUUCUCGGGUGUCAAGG", "log2 enrichment": -0.161}
{"Sequence": "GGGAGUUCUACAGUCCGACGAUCUCCGCGUGUGAAGUUUUUCUCGGCUGCAUCAUGGGUGCCACAUUCUUUUUGUUGUUUUCAGUGCUGCAAAAGCCCCAUAUCUGGCCAAGUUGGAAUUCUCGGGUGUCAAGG", "log2 enrichment": -0.239}
{"Sequence": "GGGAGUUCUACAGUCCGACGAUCUGGGAGGUGGAUUUUGUUUAUUUUUUUAGCUCAUUUCCAGGGGUGGGAAUUCUUUUUUAAUAUGUGUCAUGAAUAAAGUUGUUUUUGAAAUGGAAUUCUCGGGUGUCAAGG", "log2 enrichment": 2.32}
{"data": "Sample 2", "target": "ABI1, truncated, D143A, DHFR fusion (Arabidopsis thaliana)", "method": "DHFR PCA, deep sequencing", "sample": "yeast", "setting": "methotrexate growth selection, single substitutions", "added": "(+)-ABA 0.032 µM", "reference": "wild-type fitted maximum", "direction": "higher = stronger binding", "parent": "PYL1, truncated, DHFR fusion (Arabidopsis thaliana); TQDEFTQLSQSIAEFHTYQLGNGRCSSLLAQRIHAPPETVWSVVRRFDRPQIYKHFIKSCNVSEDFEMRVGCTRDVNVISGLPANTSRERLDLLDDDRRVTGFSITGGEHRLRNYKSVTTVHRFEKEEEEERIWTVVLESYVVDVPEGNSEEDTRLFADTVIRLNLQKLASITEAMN; partner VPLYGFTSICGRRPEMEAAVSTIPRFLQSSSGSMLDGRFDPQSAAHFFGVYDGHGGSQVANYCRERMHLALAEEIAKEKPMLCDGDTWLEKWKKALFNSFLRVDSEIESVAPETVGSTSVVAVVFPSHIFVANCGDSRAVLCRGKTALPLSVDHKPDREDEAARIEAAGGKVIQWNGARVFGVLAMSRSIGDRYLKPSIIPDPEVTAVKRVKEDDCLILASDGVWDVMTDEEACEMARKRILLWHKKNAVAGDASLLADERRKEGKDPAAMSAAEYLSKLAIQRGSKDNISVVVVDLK"}
{"Variant": "V143K", "relative binding score [%]": -3.56}
{"Variant": "F5A", "relative binding score [%]": 10.4}
{"Variant": "R24E", "relative binding score [%]": 5.06}
{"Variant": "D75I", "relative binding score [%]": 29.2}
{"Variant": "T101V", "relative binding score [%]": 35.1}
{"Variant": "F5G", "relative binding score [%]": -1.04}
{"Variant": "I12K", "relative binding score [%]": -6.1}
{"Variant": "V145K", "relative binding score [%]": -4.11}
{"Variant": "N77W", "relative binding score [%]": 5.25}
{"Variant": "E125H", "relative binding score [%]": 46}
{"Variant": "S171F", "relative binding score [%]": -4.17}
{"Variant": "N77Q", "relative binding score [%]": 59.8}
{"Variant": "D92E", "relative binding score [%]": 0.467}
{"Variant": "N77S", "relative binding score [%]": 47.6}
{"Variant": "V62T", "relative binding score [%]": 4.65}
{"Variant": "V118S", "relative binding score [%]": -0.959}
{"Variant": "L112C", "relative binding score [%]": -0.508}
{"Variant": "S117R", "relative binding score [%]": -3.81}
{"Variant": "D144G", "relative binding score [%]": 2.33}
{"Variant": "E4D", "relative binding score [%]": 19.2}
{"Variant": "I172Q", "relative binding score [%]": -3.76}
{"data": "Sample 3", "target": "CCNA2, cyclin fold, Cln2 fusion (human)", "method": "yeast growth competition, sequencing", "sample": "yeast", "setting": "strong parent motif", "reference": "not given", "direction": "higher = stronger binding", "parent": "MICAL3 docking peptide (human); LQLRRQLSFSEDS; partner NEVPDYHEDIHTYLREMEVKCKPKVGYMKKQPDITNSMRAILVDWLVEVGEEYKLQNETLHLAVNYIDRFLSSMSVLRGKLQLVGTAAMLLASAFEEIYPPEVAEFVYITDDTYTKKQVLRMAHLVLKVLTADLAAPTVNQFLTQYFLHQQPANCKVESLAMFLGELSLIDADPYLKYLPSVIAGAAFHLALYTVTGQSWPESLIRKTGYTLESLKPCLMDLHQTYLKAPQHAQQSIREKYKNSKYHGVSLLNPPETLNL"}
{"Variant": "LQLRRQLSRSEDS [F9R]", "normalised enrichment score": 0.373}
{"Variant": "LQLRRQRSFSEDS [L7R]", "normalised enrichment score": 0.0178}
{"Variant": "LQLRRQLSFSEQS [D12Q]", "normalised enrichment score": 3.49}
{"Variant": "LQLDRQLSFSEDS [R4D]", "normalised enrichment score": -0.206}
{"Variant": "LQLRRQLSFSEES [D12E]", "normalised enrichment score": 3.8}
{"Variant": "LQLLRQLSFSEDS [R4L]", "normalised enrichment score": 0.283}
{"Variant": "LQLRMQLSFSEDS [R5M]", "normalised enrichment score": 0.402}
{"Variant": "LQLRRQLSHSEDS [F9H]", "normalised enrichment score": -0.168}
{"Variant": "LQLNRQLSFSEDS [R4N]", "normalised enrichment score": 1.65}
{"Variant": "LQLRRQLSMSEDS [F9M]", "normalised enrichment score": 0.873}
{"Variant": "LQLGRQLSFSEDS [R4G]", "normalised enrichment score": 0.0413}
{"Variant": "LYLRRQLSFSEDS [Q2Y]", "normalised enrichment score": 3.03}
{"Variant": "LHLRRQLSFSEDS [Q2H]", "normalised enrichment score": 3.71}
{"Variant": "LQWRRQLSFSEDS [L3W]", "normalised enrichment score": 3.94}
{"Variant": "LQLRRWLSFSEDS [Q6W]", "normalised enrichment score": 1.21}
{"Variant": "LQSRRQLSFSEDS [L3S]", "normalised enrichment score": 5.48}
{"Variant": "LQLRRQLSFSEGS [D12G]", "normalised enrichment score": 3.38}
{"Variant": "LQGRRQLSFSEDS [L3G]", "normalised enrichment score": 2.72}
{"Variant": "LQLRRQLSFNEDS [S10N]", "normalised enrichment score": 3.09}
{"Variant": "LQLRRQLHFSEDS [S8H]", "normalised enrichment score": 3.53}
{"Variant": "LQLRRQLSFSWDS [E11W]", "normalised enrichment score": 1.91}
{"Variant": "LQLRRQLSFVEDS [S10V]", "normalised enrichment score": 2.11}
{"Variant": "LQLRRQLAFSEDS [S8A]", "normalised enrichment score": 1.62}
{"Variant": "LQLRRQLSESEDS [F9E]", "normalised enrichment score": 0.0499}
{"Variant": "LQLRRQLSFSLDS [E11L]", "normalised enrichment score": 3.15}
{"data": "Sample 4", "target": "UBE2L6 UBC core domain (UniProt O14933)", "method": "yeast two-hybrid", "sample": "yeast", "setting": "mostly zero background", "reference": "not given", "direction": "higher = stronger interaction", "B1": "RNF25 RING domain (UniProt Q96BH1); chain LTDNNIPHGQCVICLYGFQEKEAFTKTPCYHYFHCHCLARYIQHMEQELKAQGQEQEQERQHATTKQKAVGVQCPVCREPLVYDLASL", "B2": "TRIM72 RING domain (UniProt Q6ZMU5); chain APGLLHQELSCPLCLQLFDAPVTAECGHSFCRACLGRVAGEPAADGTVLCPCCQAPTRPQALST", "B3": "TRIM69 RING domain (UniProt Q86WT6); chain VIQDITMELHCPLCNDWFRDPLMLSCGHNFCEACIQDFWRLQAKETFCPECKMLCQYNNCTF", "B4": "ZNF598 RING domain (UniProt Q86UK7); chain AAAPERGGGSCVLCCGDLEATALGRCDHPVCYRCSTKMRVLCEQRYCAVCREELRQVVFGK", "Target sequence (chain)": "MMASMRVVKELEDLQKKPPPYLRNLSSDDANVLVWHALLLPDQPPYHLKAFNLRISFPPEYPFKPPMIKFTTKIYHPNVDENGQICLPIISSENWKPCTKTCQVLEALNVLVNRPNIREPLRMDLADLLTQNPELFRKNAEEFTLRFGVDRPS"}
{"Sequence": "B1 (RNF25 RING domain)", "lacZ reporter activity": 3720}
{"Sequence": "YWAMDSTFELCKICAESNKDVKIEPCGHLLCSCCLAAWQHSDSQTCPFCRCEIKGWEAVS (CBLC RING domain (UniProt Q9ULV8))", "lacZ reporter activity": 0}
{"Sequence": "DDENSDNSNECVVCLSDLRDTLILPCRHLCLCTSCADTLRYQANNCPICRLPFRALLQIR (MGRN1 RING domain (UniProt O60291))", "lacZ reporter activity": 0}
{"Sequence": "FPEHFVKSISCQICEHILADPVETNCKHVFCRVCILRCLKVMGSYCPSCRYPCFPTDLES (RAG1 RING domain (UniProt P15918))", "lacZ reporter activity": 0}
{"Sequence": "RLTMMWEEVTCPICLDPFVEPVSIECGHSFCQECISQVGKGGGSVCPVCRQRFLLKNLRP (TRIM21 RING domain (UniProt P19474))", "lacZ reporter activity": 0}
{"Sequence": "B2 (TRIM72 RING domain)", "lacZ reporter activity": 0}
{"Sequence": "FASPPDSNFVCSVCHGVLKRPARLPCSHIFCKKCILRWLARQKTCPCCRKEVKRKKVVH (RNF151 RING domain (UniProt Q2KHN1))", "lacZ reporter activity": 0}
{"Sequence": "B3 (TRIM69 RING domain)", "lacZ reporter activity": 0}
{"Sequence": "QLQDIKEQTMCPVCLDRLKNMIFLCGHGTCQLCGDRMSECPICRKAIERRILLY (MIB1 RING domain (UniProt Q86YT6))", "lacZ reporter activity": 0}
{"Sequence": "B4 (ZNF598 RING domain)", "lacZ reporter activity": 0}
{"Sequence": "EDEVSDNSAECVVCLSDVRDTLILPCRHLCLCNTCADTLRYQANNCPICRLPFRALLQIR (RNF157 RING domain (UniProt Q96PX1))", "lacZ reporter activity": 0}
{"note": "Excerpt of the above (sample 1):"}
{"Sequence": "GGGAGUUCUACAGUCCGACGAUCCUCAAGUCCUGUGCUACACAUCGUAUGUACCGAAUCGGGGUUGGGGUUGGUUGGAAAGUAUUAUGUUACGCCGUUCGGAUCUGCACUUCCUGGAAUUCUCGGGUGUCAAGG", "log2 enrichment": -0.247}
{"Sequence": "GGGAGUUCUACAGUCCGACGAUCUCCUGUGCUACACAUCGUAUGUACCGAAUCGGCCCCCCCGGCCCCCCCGGCCCCCCCGGGAAAGUAUUAUGUUACGCCGUUCGGAUCUGCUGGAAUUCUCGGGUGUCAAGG", "log2 enrichment": -1.01}
{"Sequence": "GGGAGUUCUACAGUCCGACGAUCCCUCAAGUCCUGUGCUACACAUCGUAUGUACCGAAUCGGUUUGGAAAGGUGGAAAGUAUUAUGUUACGCCGUUCGGAUCUGCACUUCCAGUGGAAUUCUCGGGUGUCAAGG", "log2 enrichment": -0.209}
{"Sequence": "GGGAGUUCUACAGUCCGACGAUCUUAAUAGAUUGAACUUCAAAAAAAAAUUCUUUCUUAAUUUCUGGAUUAAAAAGUAUGCCUGUGUCUUCUAGACCUUUACCAGAAGAUGAUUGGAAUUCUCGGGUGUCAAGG", "log2 enrichment": -0.246}
{"Sequence": "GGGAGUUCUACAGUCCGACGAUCGUCCUGUGCUACACAUCGUAUGUACCGAAUCGGGGAAAAAGGAAAAAGGGAAAAAGGGAAAGUAUUAUGUUACGCCGUUCGGAUCUGCACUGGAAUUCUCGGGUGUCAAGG", "log2 enrichment": -0.161}
